Measured values from different studies.
Parts stem from different laboratories: compare values within a part only. Changes are numbered by the printed parent chain.

Sample 1 — technique: protein binding microarray; molecule type: double-stranded DNA, one strand shown; sample: in vitro; tested at: not given; baseline: not given; direction: higher = stronger binding
Target: Histone acetyltransferase KAT6A, both winged helices, GST fusion (KAT6A, Homo sapiens, UniProt Q92794, residues 1-181)
Notes: 8-mer, flanks averaged, mean of 2 arrays, mostly near background
Residues (chain): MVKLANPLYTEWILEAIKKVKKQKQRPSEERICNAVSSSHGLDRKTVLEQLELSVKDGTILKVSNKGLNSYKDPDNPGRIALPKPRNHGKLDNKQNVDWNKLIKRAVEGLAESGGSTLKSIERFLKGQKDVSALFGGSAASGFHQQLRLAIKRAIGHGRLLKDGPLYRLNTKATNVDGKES
Strand	E-score
CAAAATGG	-0.0732
GAACACTA	-0.0553
GACCCAAA	-0.125
CCGGGTAC	0.189
TGAATAAA	0.0246
ACGCAATA	0.199
AACAAATG	-0.00321
CATCGAAG	0.0796
AGAAGAGC	-0.0225
TCCCAGCA	-0.14
CGACGTGC	0.0592
ACTGTGTG	-0.154
ATCGGCGC	0.3
AGGACGCG	0.223
AGTTTAAT	0.0243
AATCAGCT	-0.191
GAGTATCC	-0.11

Sample 2 — technique: RNA Bind-n-Seq; molecule type: RNA; sample: in vitro; tested at: 1 µM; notes: whole 134-nt RNA, ends assumed; with: 150 mM KCl; baseline: input library; direction: higher = stronger binding
Target: Ras GTPase-activating protein-binding protein 1, RRM domain (G3BP1, Homo sapiens, UniProt Q13283)
UniProt Q13283, sequence (whole entry, looked up): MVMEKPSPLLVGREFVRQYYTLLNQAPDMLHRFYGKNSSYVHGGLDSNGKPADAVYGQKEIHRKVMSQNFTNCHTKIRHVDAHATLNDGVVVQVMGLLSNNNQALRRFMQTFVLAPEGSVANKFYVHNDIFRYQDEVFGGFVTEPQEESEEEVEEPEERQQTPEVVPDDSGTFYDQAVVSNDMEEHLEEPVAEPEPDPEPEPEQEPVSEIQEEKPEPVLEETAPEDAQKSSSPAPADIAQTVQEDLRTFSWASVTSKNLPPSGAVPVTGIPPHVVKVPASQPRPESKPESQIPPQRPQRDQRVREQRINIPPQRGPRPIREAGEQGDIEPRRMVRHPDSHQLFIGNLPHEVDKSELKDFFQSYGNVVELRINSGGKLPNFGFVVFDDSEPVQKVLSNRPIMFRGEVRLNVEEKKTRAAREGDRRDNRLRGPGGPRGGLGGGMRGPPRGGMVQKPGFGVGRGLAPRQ
Strand	log2 enrichment
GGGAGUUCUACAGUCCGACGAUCUUGUGAGAGCCACAGGAAAAGCAAGAAGGAGAAGAAGAAAAAGAAAAAGAGGAAACACAAGAAAGAGAAGAAGAAGAAAGACAAAGAGCAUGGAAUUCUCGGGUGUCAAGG	0.251
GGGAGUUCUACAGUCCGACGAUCCACAGACAACACGCACCCACACAGAGACAGAGGGAAGGGGUUGGGAUGGGGACAGGGUGCACAGCAGGGCGGGGUAGGACCCCAGCCCCUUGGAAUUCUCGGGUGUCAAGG	0.0738
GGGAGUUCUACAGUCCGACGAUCUAACUUUAGAGGAGGAUCUGAUGGAUAUGGCAGUGGACGUGGAUUUGGGGAUGGCUAUAAUGGGUAUGGAGGAGGACCUGGAGCUGGCAAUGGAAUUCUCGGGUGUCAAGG	-0.316
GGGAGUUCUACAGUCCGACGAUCAUAUGAGUAAAAUCUGUCCCUUUUUCCCCCUUUGAAUGAGGUCUUCCAUGUUUGAGGGAAAGUCUUGCACUAUUGCAUAUAUUUUGGGGAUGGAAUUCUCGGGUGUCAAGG	-0.231
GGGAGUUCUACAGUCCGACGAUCAAGUCCUGUGCUACACAUCGUAUGUACCGAAUCGGGAAAGGGUGGGUUUUUUUGGGAAAGUAUUAUGUUACGCCGUUCGGAUCUGCACUUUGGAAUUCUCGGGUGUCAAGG	0.711
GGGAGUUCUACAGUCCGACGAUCGUCCUGUGCUACACAUCGUAUGUACCGAAUCGGGGAAAAAGGGGAGGGGAAAAAGGGGAAAGUAUUAUGUUACGCCGUUCGGAUCUGCACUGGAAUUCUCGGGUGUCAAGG	0.736
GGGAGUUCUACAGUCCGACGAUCCAAGUCCUGUGCUACACAUCGUAUGUACCGAAUCGGUUUUUGGAAAAAGGUUUGGAAAGUAUUAUGUUACGCCGUUCGGAUCUGCACUUCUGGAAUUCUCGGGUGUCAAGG	-0.384
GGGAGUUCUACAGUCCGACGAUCCCUCAAGUCCUGUGCUACACAUCGUAUGUACCGAAUCGGUUGGUUGGGUUGGGAAAGUAUUAUGUUACGCCGUUCGGAUCUGCACUUCCAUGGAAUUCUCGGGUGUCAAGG	-0.192
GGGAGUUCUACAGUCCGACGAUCUCCUGUGCUACACAUCGUAUGUACCGAAUCAAAUUUUUUUAAAUUUUUAAACCCCCAAAAAAGUAUUAUGUUACGCCGUUCGGAUCUGCAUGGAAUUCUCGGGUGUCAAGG	-0.974
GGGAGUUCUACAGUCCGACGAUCGCAGGAAGUAAAAACAAAUGGAAAUGCUUCGGAUAGUGGCAGGGGUGGGGGUUGCUAAGGAAAGGGUGGGAUGGGAGUGGGUAAAGAUUUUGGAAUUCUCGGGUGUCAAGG	0.681

Sample 3 — target: CCNA1, cyclin fold, Cln2 fusion (human); technique: yeast growth competition, sequencing; sample: yeast; notes: weak parent motif; baseline: not given; direction: higher = stronger binding
Starting sequence: SAMHD1 docking peptide (human); ASKSRVQLFKDDP
Change	normalised enrichment score
R5V	0.268
K10L	0.343
V6C	0.258
V6Y	0.0842
V6W	0.0285
S4T	0.419
S2R	-0.0693
K3D	-0.0276
L8N	0.268
L8G	0.392
S4G	0.0313
L8R	0.263
R5F	-0.183
F9H	0.446
K10Y	-0.103
D12R	0.013
R5N	-0.346

Sample 4 — technique: RNA Bind-n-Seq; molecule type: RNA; sample: in vitro; tested at: 365 nM; baseline: no-protein control; direction: higher = stronger binding
Target: RNA binding protein fox-1 homolog 2, RRM domain, GST-SBP tag (RBFOX2, Homo sapiens, UniProt O43251-10, residues 100-194)
Notes: natural RNA segment, single round, ends assumed
Residues (chain): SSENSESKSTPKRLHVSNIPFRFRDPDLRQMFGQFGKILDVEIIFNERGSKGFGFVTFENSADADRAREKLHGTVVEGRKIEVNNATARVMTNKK
Strand	RBNS enrichment (R)
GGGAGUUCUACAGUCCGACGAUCGCCAGGGGCAGGAAAUGAAGCCCUGCUGUCGGUCACCUCUACUAAAUCAAGCAAAUGGUCCUCUAUUAAGUAAAAAGUAGAAGAGCAAUGUGGUUCUUUUCAGUGUGCCUUGGAAUUCUCGGGUGCCAA	0.496
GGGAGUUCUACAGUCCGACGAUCUGCAGCACUGAGCCUCAAAUCCGCUCUGGAGCAUGAGGCUGGAUGCAGUGGUGGUGAGGCCGCCCCGCUCCAUCCCGAGGCAGCCAGGGUUUGUUUUGCGCUCUCCUGUCUGGAAUUCUCGGGUGCCAA	0.209
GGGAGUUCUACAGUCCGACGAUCACAUCCUCACUUUUAUUAUAAAUGGGUGUUUUUUCAUAAUUUUUACUGACGCUCAGUAACCAUGCAAAAUUGUGUAUAGCAUUAAUGUAUCUACAUACCUACACCUAUCUUGGAAUUCUCGGGUGCCAA	0.99
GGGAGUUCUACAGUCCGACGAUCUUUUCAUAAAUCCCCUUAUUAGAAAGUUCUUUUACAUAUAGGCCCCAAAAUUGUGAUUAUUAAAAAUAUAGUUAAUUGUGAUUAGCCUCCAGUGAAAAUAGGUUGAAAGCUGGAAUUCUCGGGUGCCAA	0.942
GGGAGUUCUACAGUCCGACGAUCUCCUUCACCCUGACAGUUUAACUUCAGCGUUUCUCUGUGCAGUUGCGGUCACCAUGGGUGAGCACUGUCUGUGCACGUGCCAGGGAGGAGAUGGCUGGGACCACUGCACAUGGAAUUCUCGGGUGCCAA	1.1
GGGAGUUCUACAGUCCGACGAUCAAUUCUAUAAGUCCAAGGUGUGCUUUAUCCUCAACAAUGACAUGAGUGAGAUGGAGCUGGUCUUUGCAGAAGAGAAAUACAACAAAUCAGGUCAACUGGAUAAGAUUGUAUGGAAUUCUCGGGUGCCAA	0.675
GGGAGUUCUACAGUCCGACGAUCAUUAAGAACACUAAAAAGUCCUUGCAAGAAUGGAGAUAUGCAUUCAAGAGAGGUGCUAUCACAUAGAUCUAGUCUGAAGUCUGGAACACUUUCCUCUUCUAUGACCCCUCUGGAAUUCUCGGGUGCCAA	0.394
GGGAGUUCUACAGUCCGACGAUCUGGAACUUUCCAUGACUGGAUCACAGGGAAAAACCGACCGAGCUCAGGAAGCCUAAUCCAGGUGGUAACCACAGAAGGAAGGACGGAACUCACCCCAGCAUAUUUUUAGGUGGAAUUCUCGGGUGCCAA	0.701
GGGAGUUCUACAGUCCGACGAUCCUUUUUCUUUUACUUAAUGAACAUGUGAUAUGAGUAGUGAUGUGCAAAAGCACAGACGUUCAUGUUUUCUAUCAUGUAAAAUCCUGUAGUUAAGCUGUAUAUUAGCAGUGUGGAAUUCUCGGGUGCCAA	0.287
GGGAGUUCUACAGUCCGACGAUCCUCUCCUCAUGUGCUUAUACCCUGUUCCAUGAAAAUAAAUGAGACCAUGAUUUUCCUUCAUGAUGUACCAUGUUUAACUUUCAUGUAUUAUUCUGCAAACUUGGUAGGCUUGGAAUUCUCGGGUGCCAA	0.57
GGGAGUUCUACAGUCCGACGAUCUGCGGCUUAUACAGUACCCUAACCUGCUACUAAUCACAGAGAAAAAUGUGAAGAAGGAGGAGAAGAGGAAGGCUAGAAGCCUGAGCAAGUGAGGGUAGAACCUUUUGGGAUGGAAUUCUCGGGUGCCAA	0.575
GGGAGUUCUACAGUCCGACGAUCAGUUCUGGGUUCACUUAAUGGCUUUGUGAAUGUAAAUAAGGGGCAGGUCUUGGCCCUAGAGGAUUGAGAUGUUUUUCUAAAUCUUAGAACUAUUUUUGGAUAAAUUAUAUUGGAAUUCUCGGGUGCCAA	1.27
